Measured values pooled from the literature.
Protocols differ between the studies behind these lines.

SMILES	assay	system	conditions	quantity	result
CNC(=O)c1ccc(-c2cnc3ncc(Cc4ccc5ncccc5c4)n3n2)cc1F	item: Vomiting	cancer patients	oral, 600 mg twice daily, all expansion cohorts, grade 3-4	patients with adverse event	3%
COc1cc2nccc(Oc3ccc(NC(=O)c4cc5c(n(-c6ccccc6)c4=O)CCCC5=O)nc3)c2cc1OC	–	patients with relapsed/refractory AML	oral, 6 mg once daily	TEAEs, drug-related, patients with	33.3%
O=C(Nc1nc2cccc(-c3ccc(CN4CCS(=O)(=O)CC4)cc3)n2n1)C1CC1	–	rheumatoid arthritis patients	oral, 100 mg twice daily, 4 weeks, regardless of relatedness	patients with nervous system disorders	8.3%
CCOc1c([C@H](C)n2nc(C)c3c(N)ncnc32)cc(Cl)c(F)c1[C@@H]1CNC(=O)C1	item: QRS > 110 ms	previously treated B-cell malignancy	oral, 20 mg once daily, baseline QRS ≤100 ms	patients with high heart rate	3.6%
Cc1cc(NC2CCN(C(=O)OC3CCN(C(=O)/C=C/CN(C)C)C3)CC2)n2ncc(C(C)C)c2n1 (stereo not shown)	CTCAE v4.0, item: Asthenia	patients with advanced solid tumours	oral, dose not given, TIW, grade 3 or higher	patients with TEAE	0%
C[C@@H](Nc1cc(F)cc(F)c1)c1cc(C(=O)N(C)C)cc2c(=O)cc(N3CCOCC3)oc12	item: Hydronephrosis	advanced solid tumour patients	oral, dose not given, dose expansion	patients discontinuing for AE	0%
CCO[C@H]1CCN(Cc2c(OC)cc(C)c3[nH]ccc23)[C@H](c2ccc(C(=O)O)cc2)C1	item: Nasopharyngitis	PNH patients, active haemolysis	oral, 200 mg twice daily, extension phase	patients with adverse event	0%
CC(C)C[C@H](NC(=O)CNC(=O)c1cc(Cl)ccc1Cl)B(O)O	item: Dyspnoea, all grades	newly diagnosed multiple myeloma patients	oral, dose not given, maintenance phase, new onset, cycle 17 or later	patients with adverse event	17%
COc1cc(Nc2ncc3c(n2)-c2ccc(Cl)cc2C(c2c(F)cccc2OC)=NC3)ccc1C(=O)O	item: Hypertension, grade 1	cancer patients, phase 1/2	oral, dose not given, added: pembrolizumab	patients with adverse event	8%
NC(=O)N1c2ccccc2C=Cc2ccccc21	–	male patients	oral, dose not given, on-treatment adverse events	patients with upper abdominal pain	0%
Cc1cc(-c2nnc(N)nc2-c2ccc(F)cc2)cc(Cl)n1	item: Hypothyroidism	IO-naive colorectal cancer patients	oral, dose not given, treatment-related, grade ≥3	patients with immune-mediated AE	0%
C=CC(=O)NC1CCN(c2ncc3ncnc(Nc4ccc(Oc5ccc6c(c5)ncn6C)c(C)c4)c3n2)CC1	–	male patients	oral, dose not given, on-treatment adverse events	patients with Diarrhea	0%
COc1ccc([C@@H](O)c2cc(-c3ncnc4cc(N5CCOCC5)ccc34)c(F)cc2Cl)nn1	item: Lymphopenia	locally advanced rectal cancer patients	dose not given, all dose groups, added: capecitabine plus radiotherapy	patients with drug-related AE	21%

For quick reference, copied from above:
SMILES	assay	system	conditions	quantity	result
CC(C)C[C@H](NC(=O)CNC(=O)c1cc(Cl)ccc1Cl)B(O)O	item: Dyspnoea, all grades	newly diagnosed multiple myeloma patients	oral, dose not given, maintenance phase, new onset, cycle 17 or later	patients with adverse event	17%
CNC(=O)c1ccc(-c2cnc3ncc(Cc4ccc5ncccc5c4)n3n2)cc1F	item: Vomiting	cancer patients	oral, 600 mg twice daily, all expansion cohorts, grade 3-4	patients with adverse event	3%
